Assay results from different studies.
± marks the error that the study gave.

The IC50 of `C[C@@H]1O[C@@H](Oc2cc3c(=O)oc4c(O)c(O)cc5c(=O)oc(c2O)c3c45)[C@H](O)[C@H](OC(=O)c2cc(O)c(O)c(O)c2)[C@H]1OC(=O)c1cc(O)c(O)c(O)c1` is reported as > 100 µg/mL (HUVEC; cell growth or viability, MTT; 48 h).
With `CC1N=C(CCCCCCCCCCC2=CC(CCCCCCCCCCC3=NC(C)C(O)CC3)C3CCCN3C2)CCC1O` (stereo not drawn) the IC50 was 8.47 ± 1.32 µg/mL (PMA-differentiated THP-1; cytotoxicity, Neutral Red).
`N=C(N)NCCC[C@@H](NC(=O)[C@H](N)Cc1c[nH]c2ccccc12)C(=O)N[C@H](CCCCN)C(=O)N[C@H](Cc1c[nH]c2ccccc12)C(=O)N[C@H](CCCNC(=N)N)C(=O)N[C@H](CCCCN)C(=O)N[C@H](Cc1c[nH]c2ccccc12)C(=O)N[C@H](CCCNC(=N)N)C(=O)N[C@H](CCCCN)C(=O)N[C@H](Cc1c[nH]c2ccccc12)C(=O)N[C@H](CCCNC(=N)N)C(=O)N[C@H](CCCCN)C(N)=O` gave an IC50 of 64 µM (BV-2; cytotoxicity, MTT; 24 h).
With `CCCCn1cc(C(=O)O)c(=O)c2cc(F)c3c(nnn3-c3cccc(Cl)c3)c21` the IC50 was 59.6 ± 2.49 µg/mL (HT-29; cell growth, SRB; 72 h).
The IC50 of `C#CCCC[C@@H]1OC(=O)CNC(=O)[C@H]([C@@H](C)CC)NC(=O)[C@@H]2CCCN2C(=O)[C@H]([C@@H](C)CC)OC(=O)[C@H](Cc2ccccc2)NC(=O)[C@H](C(C)C)NC(=O)C1(C)C` is reported as > 100 µM (HT-29; cytotoxicity, MTT; 48 h, 10% fetal bovine serum).
The IC50 of `CCCCn1cc(C(=O)O)c(=O)c2cc(F)c(Nc3ccccc3Cl)c([N+](=O)[O-])c21` is reported as 284 µM (SW480; cell growth or viability, SRB).
`CC[C@H](C)[C@H](NC(=O)[C@H](CCCCN)NC(=O)[C@H](CCCCN)NC(=O)[C@H](Cc1ccccc1)NC(=O)[C@H](Cc1ccccc1)NC(=O)[C@H](CCCCN)NC(=O)[C@H](CCCCN)NC(=O)[C@H](Cc1ccccc1)NC(=O)[C@H](CCCNC(=N)N)NC(=O)[C@@H](N)CCCCN)C(=O)N[C@@H](CCCCN)C(=O)N[C@@H](CCCCN)C(=O)N[C@@H](CO)C(=O)N[C@H](C(=O)N[C@@H](CCCCN)C(=O)N[C@@H](CCCCN)C(=O)N[C@@H](CCCNC(=N)N)C(=O)N[C@H](C(=O)N[C@@H](CCCCN)C(=O)N[C@@H](CCCCN)C(=O)N[C@@H](CC(C)C)C(=O)N[C@@H](Cc1ccccc1)C(=O)N[C@@H](CCCCN)C(=O)N[C@@H](CCCCN)C(=O)N1CCC[C@H]1C(=O)N[C@@H](CCCNC(=N)N)C(=O)N[C@H](C(=O)N[C@H](C(=O)N1CCC[C@H]1C(=O)N[C@H](C(=O)N[C@@H](CO)C(=O)N[C@H](C(=O)N1CCC[C@H]1C(=O)N[C@@H](Cc1ccccc1)C(=O)O)[C@@H](C)CC)[C@@H](C)CC)[C@@H](C)CC)C(C)C)C(C)C)C(C)C` gave an IC50 of > 128 µg/mL (L929; cytotoxicity, MTT; 48 h).
With `C[C@@H]1O[C@@H](Oc2cc3c(=O)oc4c(O)c(O)cc5c(=O)oc(c2O)c3c45)[C@H](O)[C@H](O)[C@H]1OC(=O)c1cc(O)c(O)c(O)c1` the IC50 was > 100 µg/mL (HUVEC; cell growth or viability, MTT; 48 h).
`CCCCn1cc(C(=O)O)c(=O)c2cc(F)c(Nc3ccccc3Cl)c(N)c21` has an IC50 of 95.4 µM (HT-29; cell growth or viability, SRB).

A few entries again:
`N=C(N)NCCC[C@@H](NC(=O)[C@H](N)Cc1c[nH]c2ccccc12)C(=O)N[C@H](CCCCN)C(=O)N[C@H](Cc1c[nH]c2ccccc12)C(=O)N[C@H](CCCNC(=N)N)C(=O)N[C@H](CCCCN)C(=O)N[C@H](Cc1c[nH]c2ccccc12)C(=O)N[C@H](CCCNC(=N)N)C(=O)N[C@H](CCCCN)C(=O)N[C@H](Cc1c[nH]c2ccccc12)C(=O)N[C@H](CCCNC(=N)N)C(=O)N[C@H](CCCCN)C(N)=O` gave an IC50 of 64 µM (BV-2; cytotoxicity, MTT; 24 h).
